Measured values collected from several papers.
Organism: Enterococcus faecalis

| Compound | assay | system | setting | MIC |
| --- | --- | --- | --- | --- |
| COc1c(NC(=O)c2ccc(NC(=O)c3ccc(NC(=O)[C@H](CC#N)NC(=O)c4ccc(NC(=O)/C(C)=C/c5ccc(O)cc5)cc4)cc3)c(OC)c2O)ccc(C(=O)O)c1O | microbial growth | ATCC29212 |  | 4 µg/mL |
| COc1cc(Cc2cnc(N)nc2N)cc(/C=C/C(=O)N2N=Cc3ccccc3C2c2ccc(C)cc2)c1OC (stereo not drawn) | microbial growth, broth dilution | ATCC29212 |  | 0.25 µg/mL |
| CNC(CC(C)C)C(=O)NC1C(=O)NC(CC(N)=O)C(=O)NC2C(=O)NC3C(=O)NC(C(=O)NC(C(=O)NCCCCNC(=N)N)c4cc(O)cc(O)c4-c4cc3ccc4O)C(O)c3ccc(c(Cl)c3)Oc3cc2cc(c3OC2OC(CO)C(O)C(O)C2OC2CC(C)(N)C(O)C(C)O2)Oc2ccc(cc2Cl)C1O (stereo not drawn) | broth microdilution | BM 4166 VanA |  | 16 µg/mL |
| CN(C)c1cc(CN)c(O)c2c1C[C@H]1C[C@H]3[C@H](N(C)C)C(O)=C(C(N)=O)C(=O)[C@@]3(O)C(O)=C1C2=O | microbial growth, broth dilution |  |  | 4 µg/mL |
| COc1cc(Cc2cnc(N)nc2N)cc(/C=C/C(=O)N2N=Cc3ccccc3C2c2ccccc2)c1OC (stereo not drawn) |  | ATCC 29212 | racemate | 0.06 to 0.125 µg/mL |
| N#Cc1ccc2cccc(O)c2n1 | microbial growth, agar dilution | ATCC33186 |  | > 1500 µM |
| CNC(CC(C)C)C(=O)NC1C(=O)NC(CC(N)=O)C(=O)NC2C(=O)NC3C(=O)NC(C(=O)NC(C(=O)NC(CCCNC(=N)N)C(=O)OC)c4cc(O)cc(O)c4-c4cc3ccc4O)C(O)c3ccc(c(Cl)c3)Oc3cc2cc(c3OC2OC(CO)C(O)C(O)C2OC2CC(C)(N)C(O)C(C)O2)Oc2ccc(cc2Cl)C1O (stereo not drawn) | broth microdilution | ATCC BAA-2573 VanA |  | 4 µg/mL |
| CC(C)C(O)C(NC(=O)[C@H](Cc1ccc(O)cc1)NC(=O)C(Cc1ccc(O)cc1)[N+](C)(C)C)C(=O)N[C@@H](C)C(=O)O (stereo partly drawn) | CLSI broth microdilution | ATCC 19433 |  | > 100 µM |
| CN(C)c1cc(CNCC2CCCCC2)c(O)c2c1C[C@H]1C[C@H]3[C@H](N(C)C)C(O)=C(C(N)=O)C(=O)[C@@]3(O)C(O)=C1C2=O | microbial growth, broth dilution |  |  | 1 µg/mL |
| COc1cc(Cc2cnc(N)nc2N)cc(/C=C/C(=O)N2N=Cc3ccccc3C2CC(C)C)c1OC (stereo not drawn) | microbial growth, broth dilution | ATCC29212 |  | 0.125 µg/mL |
| Oc1c(Br)cc(Br)c2nc3c(C(F)(F)F)cc(C(F)(F)F)cc3nc12 | microbial growth, broth dilution | OG1RF |  | 0.2 µM |
| CC(C)CNCc1cc(N(C)C)c2c(c1O)C(=O)C1=C(O)[C@]3(O)C(=O)C(C(N)=O)=C(O)[C@@H](N(C)C)[C@@H]3C[C@@H]1C2 |  | JH2-2(pMV158), Tet L efflux |  | 1 µg/mL |
| COc1cc(Cc2cnc(N)nc2N)cc(/C=C/C(=O)N2N=Cc3ccccc3C2C(C)C)c1OC (stereo not drawn) | microbial growth, broth dilution | ATCC29212 |  | 0.03 to 0.06 µg/mL |
| CNC(CC(C)C)C(=O)NC1C(=O)NC(CC(N)=O)C(=O)NC2C(=O)NC3C(=O)NC(C(=O)NC(C(=O)NC(CCCNC(=N)N)C(N)=O)c4cc(O)cc(O)c4-c4cc3ccc4O)C(O)c3ccc(c(Cl)c3)Oc3cc2cc(c3OC2OC(CO)C(O)C(O)C2OC2CC(C)(N)C(O)C(C)O2)Oc2ccc(cc2Cl)C1O (stereo not drawn) | broth microdilution | ATCC BAA-2573 VanA |  | 4 µg/mL |
| Oc1ccccc1C1Nc2ccccc2C2=[O+][Cu-2]3([Cl])[O]c4ccccc4C=[N+]3N21 (stereo not drawn) | broth microdilution | ATCC 29213 | 24 h | 256 µg/mL |
| Cc1ccc2ccc3ccc(C)nc3c2n1.Cc1ccc2ccc3ccc(C)nc3c2n1.O.[Cl-].[Cl-].[Cl-].[Yb+3] |  |  |  | 125 µg/mL |
| C[n+]1ccc(/C=C2\Sc3ccccc3N2CCCN2CCCC2)c2ccccc21 | microbial growth, broth dilution | ATCC29212 |  | 32 µg/mL |
| COc1c2c(cc3c1[C@@H]1Oc4c(ccc(O)c4CC=C(C)C)[C@@H]1CO3)OC(C)(C)C=C2 |  | ATCC 29212 |  | 128 µg/mL |

| Compound | assay | system | setting | MIC |
| --- | --- | --- | --- | --- |
| CN(C)c1cc(CNCc2ccncc2)c(O)c2c1C[C@H]1C[C@H]3[C@H](N(C)C)C(O)=C(C(N)=O)C(=O)[C@@]3(O)C(O)=C1C2=O | microbial growth, broth dilution |  |  | 2 µg/mL |
| C[n+]1ccn(CC([O-])c2ccccc2)[c]1[Ag-][I].[Na+] (stereo not drawn) | broth dilution | ATCC 19433 | 18 h, 37 °C | 10 µg/mL |
| COc1cc(Cc2cnc(N)nc2N)cc(/C=C/C(=O)N2N=Cc3ccccc3C2c2cccc(F)c2)c1OC (stereo not drawn) | microbial growth, broth dilution | ATCC29212 |  | 0.125 µg/mL |
| CCN(CC)CCCN1/C(=C/c2cc[n+](C)c3ccccc23)Sc2ccccc21 | microbial growth, broth dilution | ATCC29212 |  | 32 µg/mL |
| Oc1c(Br)ccc2cccnc12 | microbial growth, agar dilution | ATCC33186 |  | 35.7 µM |
| CNC(CC(C)C)C(=O)NC1C(=O)NC(CC(N)=O)C(=O)NC2C(=O)NC3C(=O)NC(C(=O)NC(C(=O)NCCNC(=N)N)c4cc(O)cc(O)c4-c4cc3ccc4O)C(O)c3ccc(c(Cl)c3)Oc3cc2cc(c3OC2OC(CO)C(O)C(O)C2OC2CC(C)(N)C(O)C(C)O2)Oc2ccc(cc2Cl)C1O (stereo not drawn) | broth microdilution | BM 4166 VanA |  | 16 µg/mL |
| COc1cc(Cc2cnc(N)nc2N)cc(/C=C/C(=O)N2N=Cc3ccccc3C2c2cc(C)cc(C)c2)c1OC (stereo not drawn) | microbial growth, broth dilution | ATCC29212 |  | 0.25 to 0.5 µg/mL |
| CCCCCCCCCCCCCCCCCCCCCCSCC1OC(OC2C(N)CC(N)C(OC3OC(CN)C(O)CC3N)C2O)C(O)C(N)C1O (stereo not drawn) |  | ATCC 29212 |  | > 150 µg/mL |
| CN(C)c1cc(CN2CCCCC2)c(O)c2c1C[C@H]1C[C@H]3[C@H](N(C)C)C(O)=C(C(N)=O)C(=O)[C@@]3(O)C(O)=C1C2=O |  | JH2-2(pMV158), Tet L efflux |  | 0.125 µg/mL |
| CNC(CC(C)C)C(=O)NC1C(=O)NC(CC(N)=O)C(=O)NC2C(=O)NC3C(=O)NC(C(=O)NC(C(=O)NC(CCCNC(N)=O)C(=O)OC)c4cc(O)cc(O)c4-c4cc3ccc4O)C(O)c3ccc(c(Cl)c3)Oc3cc2cc(c3OC2OC(CO)C(O)C(O)C2OC2CC(C)(N)C(O)C(C)O2)Oc2ccc(cc2Cl)C1O (stereo not drawn) | broth microdilution | ATCC BAA-2573 VanA |  | 16 µg/mL |
| CC1=C[C@@]2(C)C(=C(C)[C@H]3[C@@H]4C[C@H](C)C[C@H](C)[C@H]4[C@H]4Oc5ccc(cc5)C[C@]5(O)NC(=O)[C@]6(O[C@H]65)C(=O)[C@@H]2[C@@H]43)[C@H]1C | microbial growth, broth dilution | ATCC29212 |  | 6.3 µM |
| C/C(=N/NC(=N)N)c1nnn(-c2ccc(C#CC(C)(C)O)cc2)c1C | microbial growth, broth dilution | ATCC51299 |  | 16 µg/mL |
| COCCOC(=O)NCc1cc(N(C)C)c2c(c1O)C(=O)C1=C(O)[C@]3(O)C(=O)C(C(N)=O)=C(O)[C@@H](N(C)C)[C@@H]3C[C@@H]1C2 |  | JH2-2(pMV158), Tet L efflux |  | 4 µg/mL |
| COc1cc(Cc2cnc(N)nc2N)cc(/C=C/C(=O)N2N=Cc3ccccc3C2Cc2ccc(OC(F)(F)F)cc2)c1OC (stereo not drawn) | microbial growth, broth dilution | ATCC29212 |  | 1 µg/mL |
| CCC1(C)CCN(Cc2cc(N(C)C)c3c(c2O)C(=O)C2=C(O)[C@]4(O)C(=O)C(C(N)=O)=C(O)[C@@H](N(C)C)[C@@H]4C[C@@H]2C3)CC1 | microbial growth, broth dilution |  |  | 1 µg/mL |
| CCc1[nH]c(C(=O)N[C@@H]2CCN(c3nnc(C(C)(C)O)s3)C[C@@H]2OC)nc1Cl |  | ATCC 51575 |  | 0.5 µg/mL |
| Cc1csc(NCc2cc(N(C)C)c3c(c2O)C(=O)C2=C(O)[C@]4(O)C(=O)C(C(N)=O)=C(O)[C@@H](N(C)C)[C@@H]4C[C@@H]2C3)n1 | microbial growth, broth dilution |  |  | 4 µg/mL |
| COc1cc(Cc2cnc(N)nc2N)cc(/C=C/C(=O)N2N=Cc3ccccc3C2C=C(C)C)c1OC (stereo not drawn) | microbial growth, broth dilution | ATCC29212 | pH 5.8 | 0.25 µg/mL |

Some of these lines once more:
| Compound | assay | system | setting | MIC |
| --- | --- | --- | --- | --- |
| COc1cc(Cc2cnc(N)nc2N)cc(/C=C/C(=O)N2N=Cc3ccccc3C2C=C(C)C)c1OC (stereo not drawn) | microbial growth, broth dilution | ATCC29212 | pH 5.8 | 0.25 µg/mL |
| COc1cc(Cc2cnc(N)nc2N)cc(/C=C/C(=O)N2N=Cc3ccccc3C2c2ccccc2)c1OC (stereo not drawn) |  | ATCC 29212 | racemate | 0.06 to 0.125 µg/mL |
| COc1c2c(cc3c1[C@@H]1Oc4c(ccc(O)c4CC=C(C)C)[C@@H]1CO3)OC(C)(C)C=C2 |  | ATCC 29212 |  | 128 µg/mL |
| COc1cc(Cc2cnc(N)nc2N)cc(/C=C/C(=O)N2N=Cc3ccccc3C2c2ccc(C)cc2)c1OC (stereo not drawn) | microbial growth, broth dilution | ATCC29212 |  | 0.25 µg/mL |
| COc1cc(Cc2cnc(N)nc2N)cc(/C=C/C(=O)N2N=Cc3ccccc3C2c2cccc(F)c2)c1OC (stereo not drawn) | microbial growth, broth dilution | ATCC29212 |  | 0.125 µg/mL |
